Results from different studies.
Every numbered part comes from another study and shows a few of its results, in no order. Several values in a cell are separate wells, animals, samples, runs or records.
Sequence of UniProt Q8TDC3 (whole entry, looked up): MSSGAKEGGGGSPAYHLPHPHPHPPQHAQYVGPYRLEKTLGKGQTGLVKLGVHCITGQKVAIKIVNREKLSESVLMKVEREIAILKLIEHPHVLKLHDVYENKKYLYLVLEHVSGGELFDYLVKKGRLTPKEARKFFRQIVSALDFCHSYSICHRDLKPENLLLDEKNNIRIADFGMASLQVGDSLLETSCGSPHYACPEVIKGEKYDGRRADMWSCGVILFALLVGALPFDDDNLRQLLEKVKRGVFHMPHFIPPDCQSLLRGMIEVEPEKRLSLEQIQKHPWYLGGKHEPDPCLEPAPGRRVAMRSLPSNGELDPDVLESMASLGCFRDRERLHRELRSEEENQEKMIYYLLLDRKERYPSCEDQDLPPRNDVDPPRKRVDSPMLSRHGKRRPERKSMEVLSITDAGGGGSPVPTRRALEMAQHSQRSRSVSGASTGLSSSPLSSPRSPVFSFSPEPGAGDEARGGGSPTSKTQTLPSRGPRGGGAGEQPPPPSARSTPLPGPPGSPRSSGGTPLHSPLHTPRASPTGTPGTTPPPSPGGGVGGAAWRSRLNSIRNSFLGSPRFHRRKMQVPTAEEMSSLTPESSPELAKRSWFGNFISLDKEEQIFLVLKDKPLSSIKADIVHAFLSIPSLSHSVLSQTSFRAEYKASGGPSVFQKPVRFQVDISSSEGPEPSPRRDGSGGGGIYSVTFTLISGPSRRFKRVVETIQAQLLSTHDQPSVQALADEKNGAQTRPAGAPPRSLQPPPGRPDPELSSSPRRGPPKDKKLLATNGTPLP
Sequence of UniProt P30291 (whole entry, looked up): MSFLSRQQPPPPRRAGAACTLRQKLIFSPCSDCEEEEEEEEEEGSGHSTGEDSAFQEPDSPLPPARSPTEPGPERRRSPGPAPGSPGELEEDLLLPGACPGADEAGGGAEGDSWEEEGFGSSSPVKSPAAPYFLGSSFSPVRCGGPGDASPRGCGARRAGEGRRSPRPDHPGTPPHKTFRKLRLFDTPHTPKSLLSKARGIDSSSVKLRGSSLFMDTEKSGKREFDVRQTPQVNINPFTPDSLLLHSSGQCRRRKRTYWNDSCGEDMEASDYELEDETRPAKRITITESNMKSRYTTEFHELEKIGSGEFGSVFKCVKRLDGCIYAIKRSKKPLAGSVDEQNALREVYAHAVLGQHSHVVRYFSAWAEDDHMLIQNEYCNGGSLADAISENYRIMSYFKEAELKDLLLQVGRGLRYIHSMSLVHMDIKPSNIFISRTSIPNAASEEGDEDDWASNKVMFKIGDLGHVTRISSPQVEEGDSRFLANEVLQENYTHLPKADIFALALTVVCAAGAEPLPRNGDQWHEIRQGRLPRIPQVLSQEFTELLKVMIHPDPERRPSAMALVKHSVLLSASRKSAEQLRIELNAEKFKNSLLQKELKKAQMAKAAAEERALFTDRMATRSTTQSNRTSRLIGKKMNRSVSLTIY
Sequence of UniProt Q9HC98 (whole entry, looked up): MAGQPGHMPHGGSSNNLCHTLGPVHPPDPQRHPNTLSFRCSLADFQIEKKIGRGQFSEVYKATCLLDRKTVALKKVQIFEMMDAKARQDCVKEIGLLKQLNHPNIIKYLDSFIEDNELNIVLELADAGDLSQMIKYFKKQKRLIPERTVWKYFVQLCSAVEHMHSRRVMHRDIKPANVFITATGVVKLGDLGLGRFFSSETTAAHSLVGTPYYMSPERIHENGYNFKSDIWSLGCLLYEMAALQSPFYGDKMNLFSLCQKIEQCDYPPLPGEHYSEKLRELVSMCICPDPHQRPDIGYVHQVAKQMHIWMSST
Sequence of UniProt Q9UL54 (whole entry, looked up): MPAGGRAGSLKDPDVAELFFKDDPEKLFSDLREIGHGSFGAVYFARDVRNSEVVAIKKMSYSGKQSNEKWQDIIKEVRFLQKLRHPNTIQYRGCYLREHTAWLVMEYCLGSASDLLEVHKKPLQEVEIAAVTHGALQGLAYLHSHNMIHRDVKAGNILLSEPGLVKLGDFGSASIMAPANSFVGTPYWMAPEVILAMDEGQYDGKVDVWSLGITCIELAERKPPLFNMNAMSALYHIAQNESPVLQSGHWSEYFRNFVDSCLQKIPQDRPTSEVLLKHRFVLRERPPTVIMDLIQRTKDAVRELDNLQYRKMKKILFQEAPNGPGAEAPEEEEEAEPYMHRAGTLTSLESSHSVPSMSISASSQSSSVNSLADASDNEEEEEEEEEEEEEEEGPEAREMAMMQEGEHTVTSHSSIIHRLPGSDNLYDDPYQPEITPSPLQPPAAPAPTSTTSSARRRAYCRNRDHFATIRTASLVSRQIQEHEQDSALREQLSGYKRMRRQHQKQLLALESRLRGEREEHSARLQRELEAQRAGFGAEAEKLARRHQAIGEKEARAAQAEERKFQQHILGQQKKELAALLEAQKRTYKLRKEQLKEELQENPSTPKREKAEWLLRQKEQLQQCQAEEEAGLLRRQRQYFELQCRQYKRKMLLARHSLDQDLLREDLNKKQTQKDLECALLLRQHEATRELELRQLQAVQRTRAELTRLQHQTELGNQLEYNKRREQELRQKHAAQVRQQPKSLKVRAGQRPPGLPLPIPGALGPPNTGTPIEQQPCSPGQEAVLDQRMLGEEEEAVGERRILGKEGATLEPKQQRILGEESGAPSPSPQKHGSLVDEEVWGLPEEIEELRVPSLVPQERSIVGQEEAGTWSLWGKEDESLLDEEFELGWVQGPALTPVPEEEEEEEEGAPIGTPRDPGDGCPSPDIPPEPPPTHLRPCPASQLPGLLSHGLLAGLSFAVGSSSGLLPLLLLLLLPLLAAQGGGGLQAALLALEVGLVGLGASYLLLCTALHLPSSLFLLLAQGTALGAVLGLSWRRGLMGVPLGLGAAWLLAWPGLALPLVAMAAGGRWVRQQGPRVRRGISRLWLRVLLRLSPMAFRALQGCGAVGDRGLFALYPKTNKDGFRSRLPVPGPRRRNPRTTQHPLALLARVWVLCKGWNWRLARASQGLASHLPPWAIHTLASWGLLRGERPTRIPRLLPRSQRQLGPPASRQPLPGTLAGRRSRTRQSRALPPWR
Sequence of UniProt P35968 (whole entry, looked up): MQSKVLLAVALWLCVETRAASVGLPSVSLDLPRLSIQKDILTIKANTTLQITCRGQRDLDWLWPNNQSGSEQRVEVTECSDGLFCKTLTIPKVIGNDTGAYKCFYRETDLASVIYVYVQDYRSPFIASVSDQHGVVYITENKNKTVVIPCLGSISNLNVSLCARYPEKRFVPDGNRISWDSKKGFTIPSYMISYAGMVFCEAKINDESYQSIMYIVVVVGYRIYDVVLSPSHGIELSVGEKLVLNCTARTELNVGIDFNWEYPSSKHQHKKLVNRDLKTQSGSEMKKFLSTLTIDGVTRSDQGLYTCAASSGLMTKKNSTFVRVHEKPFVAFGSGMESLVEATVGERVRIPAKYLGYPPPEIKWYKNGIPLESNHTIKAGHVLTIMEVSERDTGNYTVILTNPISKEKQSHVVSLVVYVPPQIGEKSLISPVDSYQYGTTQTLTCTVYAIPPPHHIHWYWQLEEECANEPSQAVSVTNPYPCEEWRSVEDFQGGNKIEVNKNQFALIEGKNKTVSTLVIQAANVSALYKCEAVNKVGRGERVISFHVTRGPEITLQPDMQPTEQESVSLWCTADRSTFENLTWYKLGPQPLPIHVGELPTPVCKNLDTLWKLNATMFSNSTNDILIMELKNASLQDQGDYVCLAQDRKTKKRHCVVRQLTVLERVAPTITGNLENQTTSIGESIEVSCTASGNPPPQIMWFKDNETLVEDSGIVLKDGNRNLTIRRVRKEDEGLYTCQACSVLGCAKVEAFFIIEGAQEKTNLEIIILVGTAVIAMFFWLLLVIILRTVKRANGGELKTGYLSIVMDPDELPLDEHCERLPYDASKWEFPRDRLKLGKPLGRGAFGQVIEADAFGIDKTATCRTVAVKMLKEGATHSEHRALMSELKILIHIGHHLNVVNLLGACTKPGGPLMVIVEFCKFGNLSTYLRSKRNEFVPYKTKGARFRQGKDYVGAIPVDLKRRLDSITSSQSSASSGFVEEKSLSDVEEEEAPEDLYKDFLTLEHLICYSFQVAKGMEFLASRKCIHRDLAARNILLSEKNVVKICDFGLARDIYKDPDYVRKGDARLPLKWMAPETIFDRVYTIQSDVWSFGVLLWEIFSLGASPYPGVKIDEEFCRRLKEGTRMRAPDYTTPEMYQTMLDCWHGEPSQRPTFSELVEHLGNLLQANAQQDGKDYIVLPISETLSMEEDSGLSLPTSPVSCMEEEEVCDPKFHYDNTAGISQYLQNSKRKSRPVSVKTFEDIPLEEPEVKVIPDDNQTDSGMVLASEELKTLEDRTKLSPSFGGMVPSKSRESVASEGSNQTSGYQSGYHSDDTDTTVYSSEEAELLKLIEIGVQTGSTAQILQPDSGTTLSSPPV
Sequence of UniProt P51955 (whole entry, looked up): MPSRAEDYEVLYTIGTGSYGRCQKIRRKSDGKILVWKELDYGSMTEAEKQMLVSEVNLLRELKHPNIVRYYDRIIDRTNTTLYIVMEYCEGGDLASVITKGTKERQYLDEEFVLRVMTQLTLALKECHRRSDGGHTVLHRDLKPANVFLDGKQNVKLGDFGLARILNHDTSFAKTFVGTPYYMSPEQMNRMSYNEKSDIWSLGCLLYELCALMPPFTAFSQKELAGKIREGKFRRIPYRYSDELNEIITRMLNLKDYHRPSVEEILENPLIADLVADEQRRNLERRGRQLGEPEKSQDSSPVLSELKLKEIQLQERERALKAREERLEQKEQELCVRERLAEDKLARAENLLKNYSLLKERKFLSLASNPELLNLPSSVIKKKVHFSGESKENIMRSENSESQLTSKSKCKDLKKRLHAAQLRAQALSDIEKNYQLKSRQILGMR

Block 1 — cell line: HaCaT; concentration: 100 µM; time: 36 h
| SMILES | viability [%] |
| --- | --- |
| CCOc1ccc2nc(SCCN3CCOCC3)[nH]c2c1 | 81.7 |
| NNc1nnc(NN)c2ccccc12 | 72.7 |
| CC(CN(C)C)CN1c2ccccc2CCc2ccccc21 (centres unmarked) | 98.2 |

Block 2 — method: Phase 2a trial; species: idiopathic pulmonary fibrosis patients
Compound: CC(C)n1cnc(-c2ccc(F)cc2)c1-c1ncc(C(=O)Nc2ccc(N3CCN(C)CC3)cc2)[nH]1
| assay | conditions | patients with adverse events [%] |
| --- | --- | --- |
| refers to: back pain | 30 mg once daily, grade 2 maximum intensity | 0 |
| refers to: reticulocyte count increased | dose not given, grade 3 maximum intensity, all arms | 0 |
| refers to: reticulocyte count increased | dose not given, grade 5 maximum intensity, all arms | 0 |
| refers to: weight increased | 30 mg once daily, grade 5 maximum intensity | 0 |
| refers to: chest discomfort | 60 mg once daily, grade 5 maximum intensity | 0 |

Block 3 — SMILES: CCCCc1c(-c2ccc(O)cc2)[nH]c2nccnc12; observed: enzyme activity; action: inhibitor; concentration: 0.5 µM; reference: control
| target | remaining activity |
| --- | --- |
| Wee1-like protein kinase (WEE1, Homo sapiens, UniProt P30291) | 94.6% |
| Serine/threonine-protein kinase Nek6 (NEK6, Homo sapiens, UniProt Q9HC98) | 123% |
| Tyrosine-protein kinase Mer (MERTK, Homo sapiens, UniProt Q12866) | 94.1% |
| Tyrosine-protein kinase ABL2 (ABL2, Homo sapiens, UniProt P42684) | 64.9% |
| Serine/threonine-protein kinase ULK2 (ULK2, Homo sapiens, UniProt Q8IYT8) | 112% |
| Ribosomal protein S6 kinase alpha-2 (RPS6KA2, Homo sapiens, UniProt Q15349) | 87.7% |
| Glycogen synthase kinase-3 beta (GSK3B, Homo sapiens, UniProt P49841) | 75.4% |
| Mitogen-activated protein kinase kinase kinase 5 (MAP3K5, Homo sapiens, UniProt Q99683) | 99.3% |
| Mitogen-activated protein kinase 3 (MAPK3, Homo sapiens, UniProt P27361) | 101% |
| Serine/threonine-protein kinase TAO2 (TAOK2, Homo sapiens, UniProt Q9UL54) | 62.7% |
| Tyrosine-protein kinase Lck (LCK, Homo sapiens, UniProt P06239) | 86.8% |
| Serine/threonine-protein kinase TBK1 (TBK1, Homo sapiens, UniProt Q9UHD2) | 82.1% |
| Angiopoietin-1 receptor (TEK, Homo sapiens, UniProt Q02763) | 97% |
| Fibroblast growth factor receptor 3 (FGFR3, Homo sapiens, UniProt P22607) | 80% |

Block 4 — observed: kinase activity; action: inhibitor; concentration: 1 µM
Structure (SMILES): CC(C)S(=O)(=O)c1ccc2nccc(Nc3ccc4sc(C5CCCC5)nc4c3)c2c1.Cl
| target | remaining activity |
| --- | --- |
| Vascular endothelial growth factor receptor 2 (KDR, Homo sapiens, UniProt P35968) | 93% |
| Serine/threonine-protein kinase Nek2 (NEK2, Homo sapiens, UniProt P51955) | 98% |
| Serine/threonine-protein kinase BRSK1 (BRSK1, Homo sapiens, UniProt Q8TDC3) | 89% |

Block 5 — observed: cell-free assay; method: competition with immobilised ligand; concentration: 1 µM
SMILES: CS(=O)(=O)NCC[C@H](NC(=O)c1cncc2c1cnn2-c1ccc(F)cc1)c1ccnc(S(C)(=O)=O)c1
| target | remaining binding [%] |
| --- | --- |
| MAP kinase-interacting serine/threonine-protein kinase 2 (MKNK2, Homo sapiens, UniProt Q9HBH9) | 100 |
| Epidermal growth factor receptor (EGFR, Homo sapiens, UniProt P00533, T790M) | 90 |
| Mitogen-activated protein kinase 11 (MAPK11, Homo sapiens, UniProt Q15759) | 100 |

Block 6 — method: Incucyte 3D growth; concentration: 30 µM; direction: higher = more growth
Structure (SMILES): CC(C)(C(=O)O)[C@H](NC(=O)Cc1cccc(I)c1)c1ccc2oc(=O)[nH]c2c1
| cell line | conditions | spheroid area |
| --- | --- | --- |
| IPC-298 | 246 h | 2.71e+07 a.u. and 4.56e+07 a.u. and 3.28e+07 a.u. and 2.73e+07 a.u. and 3.08e+07 a.u. and 3.71e+07 a.u. |
| A375 | 186 h | 1.12e+08 a.u. and 1.31e+08 a.u. and 1.09e+08 a.u. and 9.78e+07 a.u. and 1.15e+08 a.u. |
| A375 | 156 h | 9.11e+07 a.u. and 9.66e+07 a.u. and 9.18e+07 a.u. and 9.34e+07 a.u. and 8.08e+07 a.u. and 1.12e+08 a.u. |
| NCI-H358 | 162 h | 6.1e+06 a.u. and 6.44e+06 a.u. and 5.95e+06 a.u. and 6.07e+06 a.u. and 7.66e+06 a.u. and 7.46e+06 a.u. |
